Results of several laboratories.
Parts stem from different laboratories: compare values within a part only. Changes are numbered by the printed parent chain.

Sample 1 — target: CCNE1, cyclin fold, Cln2 fusion (human); technique: yeast growth competition, sequencing; sample: yeast; notes: weak parent motif; relative to: not given; reading: higher = stronger binding
Parent: WEE1 docking peptide (human); HKTFRKLRLFDTP
Variant | normalised enrichment score
K2Y | -0.0251
R8M | 1.3
T12D | 1.42
F10P | 0.456
H1Y | 0.347
L7S | -0.757
L9E | -1.54
L7H | -0.455
T12E | 1.19
L9R | 0.179
H1P | 0.736
D11V | 0.922
H1S | 1.21
T3G | 1.43
K6G | 1.22
H1F | -0.22
K6H | 0.43

Sample 2 — technique: DHFR PCA, deep sequencing; sample: yeast; added: (+)-ABA 0.39 µM; relative to: wild-type fitted maximum; reading: higher = stronger binding
Target: ABI1, truncated, D143A, DHFR fusion (Arabidopsis thaliana)
Notes: methotrexate growth selection, single substitutions
Parent: PYL1, truncated, DHFR fusion (Arabidopsis thaliana); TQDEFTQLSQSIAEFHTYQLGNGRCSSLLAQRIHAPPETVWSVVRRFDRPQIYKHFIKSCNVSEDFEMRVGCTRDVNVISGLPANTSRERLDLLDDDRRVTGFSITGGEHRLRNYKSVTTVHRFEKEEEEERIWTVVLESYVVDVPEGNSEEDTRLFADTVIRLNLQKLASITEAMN; partner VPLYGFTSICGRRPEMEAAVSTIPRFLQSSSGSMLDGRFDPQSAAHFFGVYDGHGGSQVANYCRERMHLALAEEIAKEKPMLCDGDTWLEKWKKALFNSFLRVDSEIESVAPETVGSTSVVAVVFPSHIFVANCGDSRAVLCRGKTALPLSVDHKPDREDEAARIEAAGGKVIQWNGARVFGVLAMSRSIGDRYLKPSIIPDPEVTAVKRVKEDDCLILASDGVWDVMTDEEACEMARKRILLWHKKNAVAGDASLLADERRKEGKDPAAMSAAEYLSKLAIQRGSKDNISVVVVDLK
Variant | relative binding score [%]
V143C | 46.3
F124V | 48.2
C60D | 1.09
T135M | -3.07
L169Y | -10
L8K | -11.2
E38H | 8.68
R98P | -1.27
T1E | 49.6
Y53K | -10.3
T154P | -15.7

Sample 3 — technique: universal PBM; molecule type: double-stranded DNA, one strand shown; sample: in vitro; concentration: not given; reading: higher = stronger binding
Target: Sal-like protein 4, full length isoform B (SALL4, Homo sapiens, UniProt Q9UJQ4-2, residues 1-616)
Notes: 8-mer, flanks averaged, mean of replicates
Strand | E-score
CTAACTCA | -0.00691
AGTACCCC | -0.307
ACAGGACG | -0.209
AAGTAACG | 0.0672
CGTCTCAA | 0.0493
CTGTCTCA | 0.0786
CTCAGTTC | -0.0014
ACAACTCG | -0.00386
GCCATGGA | -0.162
CACACGTA | -0.0868
CAGGGGAC | -0.249

Other studies, line by line
Molecule | target | test | test system | conditions | scale | quantity | value
PhoQ, residues 284 288 289 292 302 303 SCEHLI | PhoP, residues 12 14 15 18 19 LHATL (Escherichia coli, UniProt P23836) | Sort-seq, measured: YFP reporter | E. coli | PhoQ-PhoP variant library, added: 10 µM Mg2+ | relative to: high Mg2+ state, higher = stronger signaling | fold induction | 18.2
